Results gathered from unrelated publications.
Parts stem from different laboratories: compare values within a part only. Changes are numbered by the printed parent chain.

Set 1
Target: CCND2, cyclin fold, Cln2 fusion (human)
Method: yeast growth competition, sequencing
Sample: yeast
Setting: weak parent motif
Reference: not given
Reading: higher = stronger binding
Starting sequence: RB1 docking peptide (human); PKPLKKLRFDIEG
Substitution | normalised enrichment score
F9E | -0.241
I11W | 0.35
K6G | 0.255
P1G | 0.18
G13H | 0.387
K2G | 0.00796
L4W | 0.126
R8S | 0.122
L4T | 0.168
K6L | 0.456
K2D | -0.0733

Set 2
Target: RING finger protein unkempt homolog, zinc fingers 1-6, SBP tag (UNK, Homo sapiens, UniProt Q9C0B0, residues 30-357)
Chain of UniProt Q9C0B0 (30-357, looked up): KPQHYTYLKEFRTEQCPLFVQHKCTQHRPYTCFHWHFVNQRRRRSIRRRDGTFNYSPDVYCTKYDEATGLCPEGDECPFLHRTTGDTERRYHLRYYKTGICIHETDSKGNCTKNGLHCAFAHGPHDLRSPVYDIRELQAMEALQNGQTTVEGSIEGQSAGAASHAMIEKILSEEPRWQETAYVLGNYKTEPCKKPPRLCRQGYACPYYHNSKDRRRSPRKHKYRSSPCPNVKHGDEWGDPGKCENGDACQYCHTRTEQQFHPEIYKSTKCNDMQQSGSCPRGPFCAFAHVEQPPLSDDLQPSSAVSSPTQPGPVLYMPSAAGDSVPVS
Method: RNA Bind-n-Seq
Molecule type: RNA
Sample: in vitro
Concentration: 100 nM
Setting: RNA with constant flanks, vertebrate orthologous sites, ends assumed
Reference: input RNA pool
Reading: higher = stronger binding
Oligonucleotide | bound/input enrichment [ratio]
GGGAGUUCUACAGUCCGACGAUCCCCCGUACCCCCUAAGGUAGAACUUUUUAAAAUUUUGUCUCCCCACCACUUCUGAAAACUUAGCAAUAUUAGAAGAAAACACUAACGAAGAAAUUGUGCUCGUUGUUUUGCAAAUGAAAUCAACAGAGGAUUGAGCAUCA | 1.86
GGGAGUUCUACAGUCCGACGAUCACGUGUACAUUGUGGCAUAUAGUCAACCUGGAAGUAGACCAGCUCUGCUGAUUUGAAAUUUAGAUUUUUUAAUUAUGUACUGGGGACAGGUUUUUGUCGCUUUACAUUGCUUCCUAGUUUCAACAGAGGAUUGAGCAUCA | 3.29
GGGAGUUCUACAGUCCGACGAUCAAGGAUCAAAAAUUCAAGACCAUCCUAAGCUACAUUCCAAGUUUGAGGCCAUCUUCAGCUACAUGAGACCGGGAUAGGGUGGGUAGGGAAGAGCCACAUGUAGAUCAUGGAAGCUCAGGACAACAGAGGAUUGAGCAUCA | 1.16
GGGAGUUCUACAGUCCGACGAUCGUGGGGAUGAGGGUGGGAUGGGAAAGGGAUGUAUGGAUGUUACUGGCAUUUUUAAGUGUUUUAGAGUUUUUUGGGGUUUGGGGUGGUUUUUUUCCUUGUUUUCCUUUUUUCCUUUUAAUUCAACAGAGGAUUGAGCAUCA | 1.95
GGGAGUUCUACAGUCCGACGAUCCAGUCAUGGAGAAAAACAUAUUAAAAUAAUUUCAUGGCACUGAUGUUAAUUCUAGUCUAUUAGUUUUAUAAAAGUUAGGAUUCUUAUUUAGGAACAACAGGAAAUGACUGUUAAGGAGAACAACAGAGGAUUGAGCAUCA | 1.41
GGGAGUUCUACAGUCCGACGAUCCCUUCUAUUCAGGGUUGGGCUCAUCAAUAAAAGAUGUAAUAUUUGCAACAACUGUAUUAUAUAACUAGUUAAGUUGGGUUGAAUAUUUUUUUAUUAGCCUGUAAAUAAAGAUGGCAUCUUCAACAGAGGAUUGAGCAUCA | 0.211
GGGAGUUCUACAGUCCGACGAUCCCUACAAUAAUGAAAACUUACCGGAAUUUUUUUAUUUUUCAUCUUCCCCUUAGACCUACUUAGUCUUUUUCCCCCAGGCAGAUCAUUCUGAGUGUGCGAGUGUGUGUGCACAUGUUACAGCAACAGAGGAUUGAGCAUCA | 2.33
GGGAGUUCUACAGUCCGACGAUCCCCCGAUUUUAGAUGUGAUAUUUAGGCUUUCAUUCCAGUUUGUUUUUGUCUUUUCUUGUUUAGAUACCAAUCUUUUAAAUUCUUGCAUUUUAGUAAGAGAGCUACCUUUUUAUGGAUGUUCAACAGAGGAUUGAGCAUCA | 2.1
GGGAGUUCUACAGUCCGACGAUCAUUCAUCUCUUUUUAUAUGUCCAAAAGUGACUGACCUUUUCAGCAGCUGCUGGUUUUACUUAGCCCUCCCCUCUUAGAGCACGGUUACCACUGCUCUUUAACAGAUGCUGCCUGGUAAUCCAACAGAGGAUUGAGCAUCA | 0.605
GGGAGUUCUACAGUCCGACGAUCCAGCUGAUUCACUCAUUGGGAGAGCUGCACACAUAGCUGUUCUUGAUUCGGAAAUAUUUUUAGAGAAAUUCUUUCUGGUUGCUGCCCUUAAAUAUUUCCAAUAGGAUAAAAACGUUAUUACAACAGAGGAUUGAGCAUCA | 1.18
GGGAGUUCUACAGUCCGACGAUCAUAUUCAAUCAUGGAGAAAAAGAUAUUAAAAUAAUUUCGUGGCACUGGUAUUAAUUUAUUAGUUUUACAAGUGUUAGGGUUCUUGUUUACAUACAACAGAAACUGGCUCGUAAUUAAAGACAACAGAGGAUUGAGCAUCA | 0.377

Set 3
Target: ABI1, truncated, D143A, DHFR fusion (Arabidopsis thaliana)
Method: DHFR PCA, deep sequencing
Sample: yeast
Setting: methotrexate growth selection, single substitutions
With: (+)-ABA 0.0091 µM
Reference: wild-type fitted maximum
Reading: higher = stronger binding
Starting sequence: PYL1, truncated, DHFR fusion (Arabidopsis thaliana); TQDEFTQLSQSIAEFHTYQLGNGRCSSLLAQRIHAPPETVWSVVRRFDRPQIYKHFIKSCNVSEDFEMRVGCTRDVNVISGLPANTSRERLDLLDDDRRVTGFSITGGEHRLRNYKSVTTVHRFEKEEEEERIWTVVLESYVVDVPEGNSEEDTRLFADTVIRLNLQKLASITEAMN
Substitution | relative binding score [%]
V76D | -2.51
I52C | 11.6
E109N | 45.1
I52D | 41.2
S80Q | 5.24
K168P | 1.89
Y141G | -3.58
E139C | 6.49
Q51V | -0.188

Mixed results
Molecule | target | assay | test system | conditions | scale | measurement | result
PhoQ, residues 284 288 289 292 302 303 NLGVHL | PhoP, residues 12 14 15 18 19 NQCAL (Escherichia coli, UniProt P23836) | Sort-seq, item: YFP reporter | E. coli | PhoQ-PhoP variant library, with: 10 µM Mg2+ | reference: high Mg2+ state, higher = stronger signaling | fold induction | 1.34

For quick reference, copied from above (set 2):
Oligonucleotide | bound/input enrichment [ratio]
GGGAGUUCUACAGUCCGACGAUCCCCCGAUUUUAGAUGUGAUAUUUAGGCUUUCAUUCCAGUUUGUUUUUGUCUUUUCUUGUUUAGAUACCAAUCUUUUAAAUUCUUGCAUUUUAGUAAGAGAGCUACCUUUUUAUGGAUGUUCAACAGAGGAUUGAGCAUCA | 2.1
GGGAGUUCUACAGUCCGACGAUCCCUACAAUAAUGAAAACUUACCGGAAUUUUUUUAUUUUUCAUCUUCCCCUUAGACCUACUUAGUCUUUUUCCCCCAGGCAGAUCAUUCUGAGUGUGCGAGUGUGUGUGCACAUGUUACAGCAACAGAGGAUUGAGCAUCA | 2.33
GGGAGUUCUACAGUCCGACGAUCCCUUCUAUUCAGGGUUGGGCUCAUCAAUAAAAGAUGUAAUAUUUGCAACAACUGUAUUAUAUAACUAGUUAAGUUGGGUUGAAUAUUUUUUUAUUAGCCUGUAAAUAAAGAUGGCAUCUUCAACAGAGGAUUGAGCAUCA | 0.211
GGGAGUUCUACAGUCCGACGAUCGUGGGGAUGAGGGUGGGAUGGGAAAGGGAUGUAUGGAUGUUACUGGCAUUUUUAAGUGUUUUAGAGUUUUUUGGGGUUUGGGGUGGUUUUUUUCCUUGUUUUCCUUUUUUCCUUUUAAUUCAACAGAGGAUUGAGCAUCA | 1.95
